Measurements gathered from unrelated publications.
Lines come from different studies, so protocols differ. Several values in a cell are separate wells, animals, samples, runs or records. ± gives the spread as reported. In brackets after ≈: the same amount, converted by molar mass.

O=C(O)CN(CC(=O)O)Cc1cc2c(cc1O)Oc1cc(O)c(CN(CC(=O)O)CC(=O)O)cc1C21OC(=O)c2ccccc21  permeation (FCS; POPS/POPC giant vesicles; 20 nM, 30 min, pH 7.4, no membrane potential): 17%
N.N.N.N.N.N.N.N.N.N.N.N.N.N.[Cl-].[Cl-].[Cl-].[Cl-].[Cl-].[Cl-].[O-2].[O-2].[Ru+3].[Ru+3].[Ru+4]  chemical stability (UV absorbance; ND96 recording solution): stable
CCCC[C@@H]1NC(=O)[C@@H](NC(=O)[C@H](CCC(=O)O)NC(=O)CNC(=O)CN2CCN(CC(=O)O)CCN(CC(=O)O)CCN(CC(=O)O)CC2)CCCCNC(=O)C[C@@H](C(N)=O)NC(=O)[C@H](C(C)C)NC(=O)[C@@H]2CCCN2C(=O)[C@H](CCCNC(=N)N)NC(=O)CNC(=O)[C@H](Cc2c[nH]c3ccccc23)NC(=O)[C@H](CCCNC(=N)N)NC(=O)[C@@H](Cc2ccccc2)NC(=O)[C@H](Cc2c[nH]cn2)NC(=O)[C@H](CCC(=O)O)NC1=O [indium-111 labelled]  tissue uptake (C57 mice, B16/F10 lung metastatic melanoma, muscle; intravenous, 0.037 MBq, 4 h): 0.03 ± 0.02 %ID/g
O=C(c1ccc(OCCN2CCCCC2)cc1)c1c(-c2ccc(O)cc2)sc2cc(O)ccc12  AUC(0-4 h) (C57BL/6 mice male, plasma; oral, 20 mg/kg, geometric mean): 0.341 µM·h
CCCCCCCCCCCCCNCC(=O)N(CCCCN)CC(=O)N(CC(=O)N(CC(=O)N(CCN)CC(N)=O)C1CCCCC1)C1CCCCC1  acetonitrile at elution (preparative RP-HPLC C18; water to acetonitrile gradient; 0.05% TFA in eluent; higher = more hydrophobic): 69.3%
COc1cccc(-c2ccc(NC(=O)C3=C(C(=O)O)CCC3)c(F)c2)c1  half-life (male human, plasma; oral, 40 mg, single dose, fasted, healthy volunteers): 41.4 h
CCCS(=O)(=O)Nc1ccc(F)c(C(=O)c2c[nH]c3ncc(-c4ccc(Cl)cc4)cc23)c1F  unbound fraction in incubation (rapid equilibrium dialysis; 100% human plasma; 150 µM, 4 h): 9.4e-06 ± 2.7e-06
C=CC(N)CCC(=O)O (stereo not drawn)  AUC(0-inf) (male Sprague-Dawley rat, plasma; oral, 1.0 mg/kg, formulation 1): 1750 ± 96 ng·h/mL
Cc1cc2nc3c(=O)[nH]c(=O)nc-3n(C[C@H](O)[C@H](O)[C@H](O)COP(=O)(O)O)c2cc1C  aqueous solubility (1 M KOH aqueous; pH 14, no hydrotrope): 1300 mM (≈ 593 mg/mL)
CC(=O)Nc1ccc(O[C@@H]2O[C@H](C(=O)O)[C@@H](O)[C@H](O)[C@H]2O)cc1  AUC(0-12 h) (healthy volunteers, both sexes, plasma; oral, 650 mg acetaminophen, day 1): 73900 ng·h/mL
CC[C@@H]1CN(C(=O)NCC(F)(F)F)C[C@@H]1c1cnc2cnc3[nH]ccc3n12  pharmacokinetics (population pharmacokinetic model; human; covariates sex, race, pH-modifying drugs, CYP3A inhibitors, methotrexate): no effect
CCN(CC)C(=O)[S+](C)[O-] (stereo not drawn)  oral clearance (CL/F) (human; oral): 0.595 L/h
Cc1c(C(=O)NN2CCCCC2)nc(-c2ccc(Cl)cc2Cl)n1-c1ccc(OS(=O)(=O)CCC(F)(F)F)cc1  plasma concentration (LC-MS/MS; cynomolgus monkey 3; intravenous infusion, 2.0 mg/kg, 90 min, total, PET mid-point): 0.999 µM
N[C@H]1CCN(c2nccc(-c3cnn4ncccc34)n2)C1  CLint (human liver microsomes): 199 µL/min/mg
COc1cccc(N2CCN(C3=Nc4c(F)cccc4[C@H](CC(=O)O)N3c3cc(C(F)(F)F)ccc3OC)CC2)c1  elimination rate constant (UHPLC-MS/MS; healthy women, plasma; intravenous infusion, 960 mg single dose, 60 min infusion, HPβCD formulation): 1.63e-05 ± 5.1e-06 s⁻¹
CN[C@@H]1[C@H](O)[C@H](NC)[C@H]2O[C@]3(O)[C@H](O[C@@H]2[C@H]1O)O[C@H](C)C[C@H]3NC(=O)Cc1ccc(F)cn1  parent remaining (glutathione conjugation; human liver S9; 100 µM, 2 h, pH 7.4, added: glutathione 0.2 mM): 98.7%
CNCc1ccc(-c2[nH]c3cc(F)cc4c3c2CCNC4=O)cc1  half-life (human, plasma; oral, 300 mg, fasted, mean): 23.5 h
CCc1nc(C(N)=O)c(Nc2ccc(N3CCC(N4CCN(C)CC4)CC3)c(OC)c2)nc1NC1CCOCC1  AUC(0-480 h) (human, normal hepatic function, plasma; oral, 10 mg, single dose, fasted, geometric LS mean): 523 ng·h/mL
O=C(c1ccc(F)c(F)c1Nc1ccc(I)cc1F)N1CC(O)([C@@H]2CCCCN2)C1  AUC(0-24) at steady state (paediatric patients, expansion cohort, plasma; oral, 1.0 mg/kg, mean): 1860 ng·h/mL
CCC(CC)O[C@@H]1C=C(C(=O)O)C[C@H](N)[C@H]1NC(C)=O  elimination rate constant (healthy Indian subjects, fed, plasma; oral, 75 mg oseltamivir phosphate, reference capsule formulation, Tamiflu): 2.61e-05 ± 3.33e-06 s⁻¹
Cc1nc2cccc(OCC(C)(C)C(=O)NC(C)C)c2c(N)c1C(=O)O  Vd (male Sprague-Dawley rat, plasma; intravenous, 1 mg/kg, single dose): 0.44 L/kg
O=C1CCc2ccccc2CC(=O)c2ccccc2N1  kinetic solubility (nephelometry; aqueous buffer; 30 min, pH 6.5): 25 to 50 µg/mL (≈ 94.2 to 188 µM)
c1ccc(CNc2nc(Nc3ccccc3)nc3ccccc23)cc1  maximum solubility (0.1 M sodium acetate with 0.01% Triton X-100; pH 5.5): 0.1 mM
CCCC[C@H](NC(C)=O)C(=O)N[C@H]1CCC(=O)NC[C@@H](C(=O)N[C@@H](Cc2c[nH]c3ccccc23)C(N)=O)NC(=O)[C@H](CCCNC(=N)N)NC(=O)[C@@H](Cc2ccccc2)NC(=O)[C@H](Cc2c[nH]cn2)NC1=O  Vd/F (female rat, plasma; subcutaneous, 5 mg/kg/day, multiple doses, once daily): 15.6 L/kg
N=C(N)NCCC[C@H](NCC(=O)[C@@H](O)[C@H](O)[C@H](O)CO)C(=O)O  C0 (C57BL/6J mouse, plasma; intraperitoneal, 40 mM, 2.5 µL/g, extrapolated to 0 min): 292 µM
Cc1ccc(-c2ncc(Cl)cc2-c2ccc(S(C)(=O)=O)cc2)cn1  AUC(0-24 h) (hip replacement patients, CSF; oral, 120 mg at 0 h and 24 h): 1110 ng·h/mL
Nc1nc2c(ncn2COCCO)c(=O)[nH]1  Papp (excised rabbit cornea; 1 mM, 3 h, pH 7.4, added: L-alanine 5 mM): 2.06 ± 0.69 ×10⁻⁶ cm/s
C=CC(=C)CC[C@]1(C)[C@H](C)C[C@H](OC)[C@@]23C(=C[C@H](OC(=O)[C@@H](C)CC)C[C@@H]12)[C@@H](OC(C)=O)O[C@H]3OC(C)=O  haemolysis (haemolysis; 20 µM): 15.5%
C[C@@H](CNCc1ccccc1)N1C[C@H](CCCNC(=N)N)N(CCc2cccc(F)c2)C1=S  elimination half-life (rat, plasma; intravenous, 5 mg/kg): 1.7 to 4.2 h
[2H]C([2H])([2H])Oc1cc2c(cc1OC([2H])([2H])[2H])C1CC(=O)C(CC(C)C)CN1CC2 (stereo not drawn)  dose-normalized AUC(0-t) (measured: deuterated β-HTBZ; healthy human volunteers, plasma; oral, 24 mg single dose, standard meal): 5.7 ng·h/mL
O=C1N=C(N2CCOCC2)CN1c1ccc(Cl)cc1  CL/F (beagle dog, both sexes, plasma; oral, 30 mg/kg, tablets, fasted, day 0): 4.15 mL/min/kg
Cn1c(-c2ccc(C(N)=O)cc2F)nnc1C(C)(C)Oc1c(F)cc(Cl)cc1F  half-life mean (young non-Japanese adults, plasma; oral, 20 mg single dose, day 1, high-dose multiple-dose study): 17.2 h
CS(=O)(=O)OC[C@H](O)[C@@H](O)COS(C)(=O)=O  RBC/plasma partition coefficient (Wistar rat, male, red blood cells and plasma; intraperitoneal, 500 mg/kg, 4 h): 0.73 and 0.87 and 0.84
Cc1nc(-c2ccc(OCC(C)C)c(C#N)c2)sc1C(=O)O  AUC(0-24) (adults with gout, plasma; oral, 40 mg, added: verinurad 20 mg): 2520 ng·h/mL
C=C(F)C(=O)N1CCN(c2nc(OC[C@@H]3CCCN3C)nc3c2CCN(c2cccc4cccc(Cl)c24)C3)C[C@@H]1CC#N  oral bioavailability (Sprague-Dawley rat, male; oral, 30 mg/kg, IV 5 mg/kg reference): 50.7%
CC1(C)CCc2c(-c3ccc(O[11CH3])cc3F)cc(C(N)=O)nc2O1  unbound fraction (female cynomolgus monkey, arterial plasma; baseline): 0.131 ± 0.006

Excerpt of the above:
COc1cccc(-c2ccc(NC(=O)C3=C(C(=O)O)CCC3)c(F)c2)c1  half-life (male human, plasma; oral, 40 mg, single dose, fasted, healthy volunteers): 41.4 h
CCC(CC)O[C@@H]1C=C(C(=O)O)C[C@H](N)[C@H]1NC(C)=O  elimination rate constant (healthy Indian subjects, fed, plasma; oral, 75 mg oseltamivir phosphate, reference capsule formulation, Tamiflu): 2.61e-05 ± 3.33e-06 s⁻¹
Cc1nc(-c2ccc(OCC(C)C)c(C#N)c2)sc1C(=O)O  AUC(0-24) (adults with gout, plasma; oral, 40 mg, added: verinurad 20 mg): 2520 ng·h/mL
